Results collected from several papers.
Every numbered part comes from another study and shows a few of its results, in no order.
UniProt Q8S8P5, sequence (169-264, looked up): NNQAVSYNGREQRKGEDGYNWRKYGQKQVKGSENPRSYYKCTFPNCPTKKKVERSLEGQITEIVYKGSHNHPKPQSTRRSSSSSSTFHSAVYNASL

Series 1 — cell line: HEK-293T/ACE2; effect on: pseudovirus infection; organism: VSV pseudotyped with SARS-CoV-2 spike; concentration: concentration not given; reference: vehicle-treated
| SMILES | GFP-positive cells |
| --- | --- |
| COc1cc2nccc(Oc3ccc(NC(=O)C4(C(=O)Nc5ccc(F)cc5)CC4)cc3)c2cc1OC | 75.7% |
| Cc1cc(C#N)cc(C)c1Oc1nc(Nc2ccc(C#N)cc2)nc(N)c1Br | 31% |
| COS(=O)(=O)[O-].C[N+]1(C)CCC(=C(c2ccccc2)c2ccccc2)CC1 | 65.4% |

Series 2 — effect on: enzyme activity; action: inhibitor; concentration: 20 µM
Target: Replicase polyprotein 1ab, polymerase (rep, Severe acute respiratory syndrome coronavirus 2, UniProt P0DTD1)
| Compound | inhibition |
| --- | --- |
| O=C(Nc1c(Cl)cncc1Cl)c1ccc(OC(F)F)c(OCC2CC2)c1 | -2.14% |
| N[C@@H](C(=O)O)[C@@H](OCc1ccccc1)C(=O)O | 2.07% |
| CNC(=O)[C@H]1O[C@@H](n2cnc3c(NCc4cccc(I)c4)ncnc32)[C@H](O)[C@@H]1O | -0.62% |
| CCOC(=O)CSCCC1NC(C(=O)O)CS1 (centres unmarked) | -1.91% |
| COc1ccc(-c2cc3nccn3c(Nc3ncccc3C(N)=O)n2)cc1OC | 13.3% |
| COC[C@H](C)Oc1cc(O[C@@H](C)Cc2ccccc2)cc(C(=O)Nc2ccc(C(=O)O)cn2)c1 | 0.98% |
| Ic1cncc(OC[C@@H]2CCN2)c1 | 0.13% |
| COc1cccc(/C=N/N=C/c2cccc(OC)c2)c1 | -4.79% |
| O=C(OOC(=O)c1ccccc1)c1ccccc1 | -2.25% |
| C[C@@H]1COCCN1c1cc(=O)n2c(n1)N(Cc1cncc(Cl)c1)[C@H](C(F)(F)F)CC2 | -6.42% |
| CCOc1ccc(C[C@H]2NC(=O)CCSSC[C@@H](C(=O)N3CCC[C@H]3C(=O)N[C@@H](CCCN)C(=O)NCC(N)=O)NC(=O)[C@H](CC(N)=O)NC(=O)[C@H]([C@@H](C)O)NC(=O)[C@H]([C@@H](C)CC)NC2=O)cc1 | 2.23% |
| CCCCC1C(=O)N(c2ccccc2)N(c2ccc(O)cc2)C1=O (centres unmarked) | 12.6% |
| Nc1nc(F)nc2c1ncn2[C@@H]1O[C@H](CO)[C@@H](O)[C@@H]1O | -19.7% |
| CCCCCCCC/C=C/CCCCCCCC(=O)OC[C@H]1O[C@@H](n2ccc(N)nc2=O)C(F)(F)[C@@H]1O | 0.58% |
| N=C1CCCN1Cc1[nH]c(=O)[nH]c(=O)c1Cl | -9.41% |
| C=CCn1c(=O)c2cnc(Nc3ccc(N4CCN(C)CC4)cc3)nc2n1-c1cccc(C(C)(C)O)n1 | 2.9% |
| Nc1nc(-c2ccc(Cl)c(Cl)c2)c(-c2ccncc2)s1 | 2.34% |
| Oc1c(I)cc(Cl)c2cccnc12 | -6.45% |
| COP(=O)(OC)OC(c1ccc(Cl)cc1)P(=O)(OC)OC (centres unmarked) | -11.5% |
| CC(=O)O[C@H]1CC[C@@]2(C)C(=CC[C@@H]3[C@@H]2CC[C@]2(C)C(c4cccnc4)=CC[C@@H]32)C1 | -6.44% |
| CN(C)CCN(Cc1ccccc1)c1ccccn1 | -3.7% |
| C[C@H]1CC[C@@]2(OC1)O[C@H]1C[C@H]3[C@@H]4CC[C@@H]5C[C@@H](O)CC[C@]5(C)[C@H]4CC[C@]3(C)[C@H]1[C@@H]2C | -0.19% |
| FC(F)OC(F)(F)C(F)Cl (centres unmarked) | 1.69% |
| Cc1ccccc1N1CCN(S(=O)(=O)C[C@]23CC[C@H](C[C@@H]2NC(=O)[C@@H](N)CCS(C)(=O)=O)C3(C)C)CC1 | 1.76% |
| NC(=O)N1C(=O)/C(=C(\O)c2cccs2)c2cc(Cl)ccc21 | -7.35% |

Series 3 — effect on: enzyme activity; action: inhibitor; concentration: 20 µM; setting: primary screen
Target: Replicase polyprotein 1ab, main protease (rep, Severe acute respiratory syndrome coronavirus 2, UniProt P0DTD1)
| SMILES | inhibition [%] |
| --- | --- |
| Oc1cc2c(cc1O)CN(C(=S)NCCc1ccc(Cl)cc1)CCC2 | 60.5 |
| COc1cc(C(=S)N2CCOCC2)cc(OC)c1OC | 61.1 |
| CCCCCCCCCCCCCCCCCC[S+](CCC)c1ccccc1C(=O)OCC (centres unmarked) | 96.8 |

Series 4 — technique: protein-binding microarray; form: double-stranded DNA, one strand shown; matrix: in vitro; concentration: 0.8 µM; setting: whole 60-bp probe, no competitor; direction: higher = stronger binding; constant ends, left off below: … GTCTTGATTCGCTTGACGCTGCTG
Target: Centromere-binding protein 1, full length, N-terminal tag (CBF1, Saccharomyces cerevisiae, UniProt P17106, residues 1-351)
UniProt P17106, sequence (whole entry, looked up): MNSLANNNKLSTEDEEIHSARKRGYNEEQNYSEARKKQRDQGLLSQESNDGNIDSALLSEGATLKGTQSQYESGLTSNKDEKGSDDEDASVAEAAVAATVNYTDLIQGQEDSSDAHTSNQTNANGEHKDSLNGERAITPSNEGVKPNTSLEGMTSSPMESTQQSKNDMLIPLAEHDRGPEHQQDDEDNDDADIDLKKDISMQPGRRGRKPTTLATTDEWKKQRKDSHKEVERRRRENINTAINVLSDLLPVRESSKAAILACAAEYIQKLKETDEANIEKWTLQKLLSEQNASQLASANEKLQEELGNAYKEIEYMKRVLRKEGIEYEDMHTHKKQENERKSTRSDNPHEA
| Oligonucleotide | fluorescence intensity [a.u.] |
| --- | --- |
| GAATAAGGGAGGCGGCTGATGTCCATCAACCGCTAG | 491 |
| GAATTAGATGGTAAACACGTTGTCTTGATGACTTAG | 613 |
| GAATTTTTTCCGCTCGTCGTGGTGGCATGCGCTTAG | 532 |
| CTAGAGTAAGAAGTACTCGTGCACATTTCAATGTTC | 657 |
| CTACACATAGAAAGACACGTGGAAATAACAGTCTTC | 2320 |
| CTATTCAAACTTCATCATCAGAAAGGTATACTGTTC | 529 |
| CTAAATAGATCTAGGCACGTGGCTGCAGTGACTTTC | 7910 |
| GAAAAAGCCTATTGCCATCACGTGGCAAGCCAGTAG | 7650 |

Series 5 — technique: RNA Bind-n-Seq; form: RNA; matrix: in vitro; concentration: 200 nM; setting: whole 134-nt RNA, ends assumed; added: 150 mM LiCl; reference: input library; direction: higher = stronger binding; library: 7-deaza-guanosine replaces G
Target: Fragile X messenger ribonucleoprotein 1, C-terminal low-complexity region (Fmr1, Mus musculus, UniProt P35922)
Constant ends, left off below: GGGAGUUCUACAGUCCGACGAUC … UGGAAUUCUCGGGUGUCAAGG
| Oligonucleotide | log2 enrichment |
| --- | --- |
| AGUCCUGUGCUACACAUCGUAUGUACCGAAUCGGGGAAAAGGGGAAAAGGAAAAGGGAAAGUAUUAUGUUACGCCGUUCGGAUCUGCACU | -0.724 |
| UCCUGUGCUACACAUCGUAUGUACCGAAUCGGGGAAAAAAAGGGGUUUUUGGGGUGGGGAAAGUAUUAUGUUACGCCGUUCGGAUCUGCA | -0.298 |
| GUCCUGUGCUACACAUCGUAUGUACCGAAUCGGGGUUUUUGGGUUUUUGGUUUUUGGGGAAAGUAUUAUGUUACGCCGUUCGGAUCUGCA | -1.54 |
| UGGCCCUGGUGGCAUGCGGGGAGGAAGAGGUGGCCUCAUGGAUCGUGGUGGUCCCGGUGGAAUGUUCAGAGGUGACCGUGGUGGAGACAG | -0.52 |
| UGGGAGGUGGAUUUUGUUUAUUUUUUUAGCUCAUUUCCAGGGGUGGGAAUUUUUUUUUAAUAUGUGUCAUGAAUAAAGUUGUUUUUGUAA | 0.332 |
| CCUCAAGUCCUGUGCUACACAUCGUAUGUACCGAAUCGGUUUGGUGGAAAGGAAAGUAUUAUGUUACGCCGUUCGGAUCUGCACUUCCAG | -0.0267 |
| UCCUGUGCUACACAUCGUAUGUACCGAAUCGGGCCCCCCCGGCCCCCCCGGCCCCCCCGGAAAGUAUUAUGUUACGCCGUUCGGAUCUGC | 1.35 |
| AGUCCUGUGCUACACAUCGUAUGUACCGAAUCAAACCCCCAAAUUUUUAAAUUUAAAAAAGUAUUAUGUUACGCCGUUCGGAUCUGCACU | 0.114 |

Further values, each from its own experiment — technique: DNA-protein interaction ELISA; form: double-stranded DNA, one strand shown; matrix: in vitro, bacterial lysate; concentration: not given; setting: whole dsDNA probe, crude lysate protein; reference: highest signal in screen; direction: higher = stronger binding
WRKY50 DNA-binding domain: Probable WRKY transcription factor 50, DNA-binding domain (WRKY50, Arabidopsis thaliana, UniProt Q8VWQ5, residues 99-173)
UniProt Q8VWQ5, sequence (99-173, looked up): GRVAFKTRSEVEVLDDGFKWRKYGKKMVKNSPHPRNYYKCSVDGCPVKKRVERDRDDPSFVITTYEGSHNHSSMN
| Oligonucleotide | target | relative absorbance |
| --- | --- | --- |
| AAAAAATGCTATCCGTGTCTATGCCAAAAA | Probable WRKY transcription factor 33, N-terminal DNA-binding domain (WRKY33, Arabidopsis thaliana, UniProt Q8S8P5, residues 169-264) | 18.1 % of maximum |
| AAAAAAATCCGATCGATGCATATATAAAA | WRKY50 DNA-binding domain | 20.1 % of maximum |
| AAAAAAGACACTCTAATTCCGTAGGCAAAA | WRKY50 DNA-binding domain | 18.7 % of maximum |

For quick reference, copied from above (series 2):
| Compound | inhibition |
| --- | --- |
| Cc1ccccc1N1CCN(S(=O)(=O)C[C@]23CC[C@H](C[C@@H]2NC(=O)[C@@H](N)CCS(C)(=O)=O)C3(C)C)CC1 | 1.76% |
| FC(F)OC(F)(F)C(F)Cl (centres unmarked) | 1.69% |
| COP(=O)(OC)OC(c1ccc(Cl)cc1)P(=O)(OC)OC (centres unmarked) | -11.5% |
| COc1cccc(/C=N/N=C/c2cccc(OC)c2)c1 | -4.79% |
| CCOc1ccc(C[C@H]2NC(=O)CCSSC[C@@H](C(=O)N3CCC[C@H]3C(=O)N[C@@H](CCCN)C(=O)NCC(N)=O)NC(=O)[C@H](CC(N)=O)NC(=O)[C@H]([C@@H](C)O)NC(=O)[C@H]([C@@H](C)CC)NC2=O)cc1 | 2.23% |
| O=C(OOC(=O)c1ccccc1)c1ccccc1 | -2.25% |
| Ic1cncc(OC[C@@H]2CCN2)c1 | 0.13% |
| NC(=O)N1C(=O)/C(=C(\O)c2cccs2)c2cc(Cl)ccc21 | -7.35% |
